Assay results gathered from unrelated publications.
Each numbered part is a random draw from the data of one study; scales do not carry over between parts. Substitutions count along the parent as printed.

Sample 1
Target: Ras GTPase-activating protein-binding protein 1, full length (G3BP1, Homo sapiens, UniProt Q13283)
Sequence of UniProt Q13283 (whole entry, looked up): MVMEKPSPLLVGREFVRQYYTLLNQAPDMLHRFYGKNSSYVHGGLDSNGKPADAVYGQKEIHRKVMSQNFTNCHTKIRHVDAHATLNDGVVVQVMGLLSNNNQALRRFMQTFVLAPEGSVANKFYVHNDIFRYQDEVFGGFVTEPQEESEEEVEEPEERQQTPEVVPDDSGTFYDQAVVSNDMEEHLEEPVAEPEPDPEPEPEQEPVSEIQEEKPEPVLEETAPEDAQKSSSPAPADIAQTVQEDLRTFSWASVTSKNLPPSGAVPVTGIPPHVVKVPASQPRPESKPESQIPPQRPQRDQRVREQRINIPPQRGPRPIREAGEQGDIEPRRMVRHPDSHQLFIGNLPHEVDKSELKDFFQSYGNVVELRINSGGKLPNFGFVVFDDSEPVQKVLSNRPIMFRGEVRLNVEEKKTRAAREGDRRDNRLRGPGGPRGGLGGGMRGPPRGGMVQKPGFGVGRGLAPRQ
Technique: RNA Bind-n-Seq
Molecule type: RNA
Matrix: in vitro
Tested at: 200 nM
Notes: whole 134-nt RNA, ends assumed
Together with: 150 mM LiCl
Relative to: input library
Direction: higher = stronger binding
All molecules: 7-deaza-guanosine replaces G
For `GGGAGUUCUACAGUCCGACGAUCCCUGUGCUACACAUCGUAUGUACCGAAUCGGGAAAAAAAGGGUUUUUUUGGGAAAAAGGGAAAGUAUUAUGUUACGCCGUUCGGAUCUGCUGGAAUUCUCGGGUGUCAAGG`, the log2 enrichment was -1.65.
For `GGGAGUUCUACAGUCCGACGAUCCAAGUCCUGUGCUACACAUCGUAUGUACCGAAUCGGGGAAGGGGAAGGGGAAGGGGAAAGUAUUAUGUUACGCCGUUCGGAUCUGCACUUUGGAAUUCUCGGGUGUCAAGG`, the log2 enrichment was 0.0465.
`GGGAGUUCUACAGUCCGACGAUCUGGGAGGUGGAUUUUGUUUAUUUUUUUAGCUCAUUUCCGGGGGUGGGAAUUUUUUUUUAAUAUGUGUCAUGAAUAAAGUUGUUUUUGAAAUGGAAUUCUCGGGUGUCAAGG` has a log2 enrichment of 0.336.
The log2 enrichment of `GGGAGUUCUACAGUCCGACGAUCAGUCCUGUGCUACACAUCGUAUGUACCGAAUCGGCCCCCGGGCCCCCGGCCCCCGGGAAAGUAUUAUGUUACGCCGUUCGGAUCUGCACUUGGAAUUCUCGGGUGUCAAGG` is reported as -0.935.
`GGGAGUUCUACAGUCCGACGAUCAGUCCUGUGCUACACAUCGUAUGUACCGAAUCAAAUUUAAACCCCCCCAAAUUUAAAAAAGUAUUAUGUUACGCCGUUCGGAUCUGCACUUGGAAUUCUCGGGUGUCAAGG` has a log2 enrichment of 1.13.
`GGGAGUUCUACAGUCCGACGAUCUCCUCAAGUCCUGUGCUACACAUCGUAUGUACCGAAUCGGGCGGCGGCGGGGAAAGUAUUAUGUUACGCCGUUCGGAUCUGCACUUCCAGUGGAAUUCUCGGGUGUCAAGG` has a log2 enrichment of 1.11.
The log2 enrichment of `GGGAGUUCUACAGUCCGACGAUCAGUCCUGUGCUACACAUCGUAUGUACCGAAUCGGGUUUUGGGUUUUGGGUUUUGGGGAAAGUAUUAUGUUACGCCGUUCGGAUCUGCACUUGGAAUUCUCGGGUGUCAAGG` is reported as 0.00612.
With `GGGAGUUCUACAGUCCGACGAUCGUCCUGUGCUACACAUCGUAUGUACCGAAUCGGAAAAAAAGGAAAAAGGAAAAAAAGGAAAGUAUUAUGUUACGCCGUUCGGAUCUGCACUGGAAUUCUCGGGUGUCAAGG` the log2 enrichment was -0.741.

Sample 2
Target: Hepatocyte nuclear factor 3-alpha (Foxa1, Mus musculus, UniProt P35582, residues 1-468, full length assumed)
Technique: EMSA with sequencing
Molecule type: double-stranded DNA, one strand shown
Matrix: in vitro
Tested at: 10 and 20 nM
Notes: whole designed probe, mean of two concentrations, ends assumed
Relative to: negative control set to 0
Direction: higher = stronger binding
Target sequence (chain): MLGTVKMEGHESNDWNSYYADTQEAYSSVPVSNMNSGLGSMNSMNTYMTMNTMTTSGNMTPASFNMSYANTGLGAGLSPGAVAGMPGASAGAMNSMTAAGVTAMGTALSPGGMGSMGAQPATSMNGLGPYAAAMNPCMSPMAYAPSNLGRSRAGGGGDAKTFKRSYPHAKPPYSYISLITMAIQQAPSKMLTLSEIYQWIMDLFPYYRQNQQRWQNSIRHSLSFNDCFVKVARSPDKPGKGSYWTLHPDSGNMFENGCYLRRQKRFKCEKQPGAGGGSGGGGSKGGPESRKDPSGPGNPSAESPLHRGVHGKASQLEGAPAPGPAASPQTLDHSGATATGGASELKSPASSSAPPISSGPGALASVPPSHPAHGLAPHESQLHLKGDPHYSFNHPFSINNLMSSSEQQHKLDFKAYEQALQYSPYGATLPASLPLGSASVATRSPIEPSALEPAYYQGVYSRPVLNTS
`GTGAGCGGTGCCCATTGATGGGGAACCTGTAGCCTTTGCAAATAACCTTTTTGAACAAAAACGGCAATGGCTCATTCCAAACCCGATCAAAGAGGTATGCATGACTCACAGCCACTAAATAAACATTGATGCCTGATGGCAGTAATATGGCTATTTATATTCAGAGCCTGATTTAACCAGTGGCATTCCTGTAATAAGATAATAAGCATGAGCTGTTTATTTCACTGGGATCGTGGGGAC`: “normalised bound fraction” 0.535 ratio.
Under “normalised bound fraction”, `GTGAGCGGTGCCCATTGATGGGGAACAATTTCACTAATTACTGATTCTATGAATAGGATAATGATTATGAAGAAAAATGCAAAAGTACAATCTCTTGAGCTGAAGAAAAAAATACAGAGTAATCTTGCTCCTCATAAGAATACTGTCTAAATCGAATGACCAACAAGACTGATTTGATGTTTGGTTGCAGAGATACTAGTCAAGTTTATTTTAATTCTTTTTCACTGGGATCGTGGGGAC` is recorded as 0.00742 ratio.
`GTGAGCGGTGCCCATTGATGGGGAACGAGCTGCTTGCAATTGAGTTGTATGTATGCTTCCACTTAATACGTCCTGCCGAGCCTGTAAGCCAACAGGAATCTCACTTCCGGCGCCCTCTGTGTTTACCTACTCTCTTTTTATGTCTTATTCCCAGAATGACTGGGGACCAAAGGAATCCTTTGCAGGAGTTTTCTCCAGACAGACAGTTCCACATGCTAGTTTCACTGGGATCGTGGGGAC` — result for “normalised bound fraction”: 0.249 ratio.
Under “normalised bound fraction”, `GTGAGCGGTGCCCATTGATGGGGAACTATACTTGCATTTAATTTATACTAATTCTACTATGTGTTTCACCAAAAATAAATTGAAAAGGATACTGCTCACTCAGTGAACACATGCTCCAGAGTAATCTTGAAATGAGCAATGTGAATGGGGCATTCACGTTTCACAAATTGAACAGTTTTGATGGTGAGGGCAAAGTGTCACTCACCCTTATGCTTATGATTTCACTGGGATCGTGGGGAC` is recorded as -0.0351 ratio.
Under “normalised bound fraction”, `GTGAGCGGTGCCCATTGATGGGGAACCACTCAACAGAAGGTTCTTCAATCCTCAAACTTTATCCAGTGAAAGCACTAATCCTGATATTTCTCTAGTTTCTTTGATGGCATGACCCCTTGTGTAATTTTTGATAGAGATTACACTGACAGTTGTGTAAGCCAGCTGGATCCCAGCCAGGGACAAAGGAATTTATAAAAGGCCAGGAATAGAGAATCCAAGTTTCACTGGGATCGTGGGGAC` is recorded as -0.0403 ratio.

Sample 3
Target: CCNB2, cyclin fold, Cln2 fusion (human)
Technique: yeast growth competition, sequencing
Matrix: yeast
Notes: weak parent motif
Relative to: not given
Direction: higher = stronger binding
Starting sequence: MASTL docking peptide (human); PMIAKNLMCELDE
For `PMIAKNLMRELDE [C9R]`, “normalised enrichment score” read 0.964.
`PMIAKNLPCELDE [M8P]` — result for “normalised enrichment score”: -0.385.
For `PMIAKNYMCELDE [L7Y]`, “normalised enrichment score” read -0.111.
For `PMIAKNLMCENDE [L11N]`, “normalised enrichment score” read -0.114.
`PMYAKNLMCELDE [I3Y]` — result for “normalised enrichment score”: 0.288.
`PMIAKNLECELDE [M8E]` — result for “normalised enrichment score”: 0.428.
`PMIAKNLMKELDE [C9K]`: “normalised enrichment score” 0.955.
`PMIAKNVMCELDE [L7V]`: “normalised enrichment score” -0.0786.
`PMIARNLMCELDE [K5R]` — result for “normalised enrichment score”: 1.55.
For `PMPAKNLMCELDE [I3P]`, “normalised enrichment score” read 0.367.
For `PTIAKNLMCELDE [M2T]`, “normalised enrichment score” read 1.06.
`PMIAKNLMCQLDE [E10Q]` — result for “normalised enrichment score”: 0.587.
`PMIAKNLFCELDE [M8F]`: “normalised enrichment score” 0.749.
`PLIAKNLMCELDE [M2L]`: “normalised enrichment score” 0.548.
Under “normalised enrichment score”, `PMIAKNLMCNLDE [E10N]` is recorded as 0.0618.
Under “normalised enrichment score”, `PMIACNLMCELDE [K5C]` is recorded as 0.246.
For `PMIAKNLKCELDE [M8K]`, “normalised enrichment score” read -0.149.

Sample 4
Target: Histone acetyltransferase KAT6A, winged helix 2, GST fusion (KAT6A, Homo sapiens, UniProt Q92794, residues 85-181)
Technique: protein binding microarray
Molecule type: double-stranded DNA, one strand shown
Matrix: in vitro
Tested at: not given
Notes: 8-mer, flanks averaged, mean of 2 arrays, mostly near background
Relative to: not given
Direction: higher = stronger binding
Residues (chain): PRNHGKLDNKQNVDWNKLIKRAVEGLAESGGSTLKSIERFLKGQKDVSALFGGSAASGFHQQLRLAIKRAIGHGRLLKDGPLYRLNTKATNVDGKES
For `ATTTCACG`, the E-score was 0.0609.
`ACCTTTGG` gave an E-score of -0.138.
The E-score of `AGCTACAC` is reported as -0.128.
`CTAAGATC` gave an E-score of -0.0846.
`GAGTGTGA` gave an E-score of 0.00404.
With `GGGGGATA` the E-score was -0.155.
`CCAGCCGG` has an E-score of 0.168.
`ACACCTGA` gave an E-score of -0.15.
`GCTGTTAC` gave an E-score of -0.153.
`AACAAATT` has an E-score of -0.00769.
The E-score of `CTCATCTC` is reported as -0.0601.
With `TCTCTAAA` the E-score was -0.00817.
For `ACGACGGA`, the E-score was -0.047.
`CAAGTAAA` gave an E-score of -0.0906.
With `ACGGAGCC` the E-score was -0.00236.
With `ATGCTTCA` the E-score was 0.081.
`GCTTAATA` has an E-score of -0.0387.
For `AACACACG`, the E-score was -0.135.
`AATTGCCG` gave an E-score of 0.0161.
The E-score of `AACGTCAA` is reported as -0.0565.
The E-score of `AGGCCGGC` is reported as 0.0498.
`ATAGAGAG` has an E-score of -0.167.
`AAGCTGGT` gave an E-score of 0.124.
`AGATAAAG` gave an E-score of -0.0522.
With `ATAATGCA` the E-score was -0.188.

For quick reference, copied from above (sample 4):
`AAGCTGGT` gave an E-score of 0.124.
`CCAGCCGG` has an E-score of 0.168.
For `AACACACG`, the E-score was -0.135.
The E-score of `AACGTCAA` is reported as -0.0565.
`ACACCTGA` gave an E-score of -0.15.
`CTAAGATC` gave an E-score of -0.0846.
`ACCTTTGG` gave an E-score of -0.138.
With `GGGGGATA` the E-score was -0.155.
